# Experimental data gathered from unrelated publications.
# Each numbered part is a random draw from the data of one study; scales do not carry over between parts. Changes are numbered by the printed parent chain.

# Block 1
# Target: HLA class I histocompatibility antigen, A alpha chain, allele A*80:01 (Homo sapiens, UniProt P04439)
# Observed: peptide-MHC binding
# Molecule type: peptide
# Tested at: concentration not given
Molecule,binding
LTDKSGSEY,inactive
MQIDGGEGV,inactive
HQAIISDVL,inactive
NLFDWMHFL,inactive

# Block 2
# Target: RNA binding protein fox-1 homolog 2, RRM domain, GST-SBP tag (RBFOX2, Homo sapiens, UniProt O43251-10, residues 100-194)
# Technique: RNA Bind-n-Seq
# Molecule type: RNA
# Medium: in vitro
# Tested at: 365 nM
# Setting: natural RNA segment, single round, ends assumed
# Relative to: no-protein control
# Reading: higher = stronger binding
# Constant ends, left off below: GGGAGUUCUACAGUCCGACGAUC … UGGAAUUCUCGGGUGCCAA
# Construct (chain): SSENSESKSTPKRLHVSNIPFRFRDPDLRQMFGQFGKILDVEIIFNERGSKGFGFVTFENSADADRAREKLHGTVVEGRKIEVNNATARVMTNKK
Strand,RBNS enrichment (R)
CCCCGUGCGAGCGGCACCCCUGCCCUGCCCUCCACAGAAUUGGGUUCCAAGGGCUGUUCCAGACAACUGCCAACGUCACUGAGGGCCCUGCCCCAGCGGCCCUGGCCCCA,0.213
UAAUUUAGUGUUUUUAACUGAUACAUAAUUUAUCAAGCAGUACAUGAAAGUGUAAUAAUAAAAUGUCUAUGUAUCUUUAGUUACAUUCAAAUUUGUAACUUUAUAAACAU,0.351
UCUUAAUUCUUGGGGAGGUUACUAAUAGCAGUAGGAUAGAAUUUUAUGAGGUUACCUACAACUACUUAAUGUACUUACACUGUAAGCCUUGUUGCUUUACCCAAGACAAA,0.437
UUGUAUUUGUUUUAAGAAACAUUGGUUCCUAUGUAUUUUAGCAUUUUUGGUGAUUUCAAUUGACUUUGUUUCUUUUAGGUACUGUUUUUAUUGUUUUACUUAGAAUAUUA,0.542
GAUAGUUAAAAAUUACUAAUUGGUUUUAUUUCCCUUCACACUCUGCCUCCCCACUUCUCCCCCCGUUACUGAAAAAUAACCAUUUUAGUGUCAGGCUAGAAAUUGAAUUG,0.436
CCCAUCAGAAUUAUAUUUAUACAUAUUGGUGGAUAAGUUCUUGUCUUCCCACAUCAGAGAAUUUUUUUUUAAACCAAAAUGGGCAGAAUAGCAUUUUGUAUGUUAGAGAC,0.456
GGGCAGACUGUUCUCUCAUAGUCUUAUCUGUUUGAAUAUUCCUGGGUAUGACUUUAUGUGUGGCAAAAACCCACAUUACCAAAGUAGUUUUUAACUACUGUAAUUUGUAA,0.405
UACUUUUCUGUAUUCCCAAGGAAUGCCUUCCUGUCUUAUUUUAGCCAAAACAAACUGGUUCCAUGCCUUCCUUGCAGUGAACGUUACAAUGGAUGUGGUUGUCAAUGUGA,0.329

# Block 3
# Target: Ras GTPase-activating protein-binding protein 1, full length (G3BP1, Homo sapiens, UniProt Q13283)
# Chain of UniProt Q13283 (whole entry, looked up): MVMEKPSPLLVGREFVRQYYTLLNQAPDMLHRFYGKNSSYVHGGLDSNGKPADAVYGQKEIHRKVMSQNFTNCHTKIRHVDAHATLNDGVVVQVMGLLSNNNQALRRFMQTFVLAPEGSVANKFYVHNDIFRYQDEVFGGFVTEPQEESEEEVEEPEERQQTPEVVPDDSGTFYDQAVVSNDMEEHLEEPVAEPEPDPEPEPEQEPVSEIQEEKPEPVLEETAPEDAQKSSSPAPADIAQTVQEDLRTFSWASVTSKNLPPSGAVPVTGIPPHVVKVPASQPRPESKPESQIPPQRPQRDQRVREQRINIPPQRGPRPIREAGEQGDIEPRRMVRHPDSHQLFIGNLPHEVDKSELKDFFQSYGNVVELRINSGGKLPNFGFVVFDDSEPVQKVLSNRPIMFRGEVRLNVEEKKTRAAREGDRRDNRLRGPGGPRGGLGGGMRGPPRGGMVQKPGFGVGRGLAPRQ
# Technique: RNA Bind-n-Seq
# Molecule type: RNA
# Medium: in vitro
# Tested at: 200 nM
# Setting: whole 134-nt RNA, ends assumed
# With: 150 mM LiCl
# Relative to: input library
# Reading: higher = stronger binding
# Each molecule: 7-deaza-guanosine replaces G
# Constant ends, left off below: GGGAGUUCUACAGUCCGACGAUC … UGGAAUUCUCGGGUGUCAAGG
Strand,log2 enrichment
UGGCCCUGGUGGCAUGCGGGGAGGAAGAGGUGGCCUCAUGGAUCGUGGUGGUCCCGGUAGAAUGUUCAGAGGUGGCCGUGGUGGAGACAG,0.286
UGGCCCUGGUGGCAUGCGGGGAGGAAGAGGUAGCCUCAUGGAUCGUGGUGGUCCCGGUGGAAUGUUCAGAGGUGGCCGUGGUGGAGACAG,0.0846
UGGGAGGUGGUUUUUGUUUAUUUUUUUAGCUCAUUUCCAGGGGUGGGAAUUUUUUUUUAAUAUGUGUCAUGAAUAAAGUUGUUUUUGAAA,-0.073
ACCAUGCAGGUGGGCAUCUUUGGGAAGUGGGGCAAGGGGGGUAUAGGGAGGGGGGUAACACUUUGGGAACAGGUGGUCCCAGGUCGUUUC,0.11
GCAGGAAGUAAAAACAAAUGGAAAUGCUUCGGAUAAUGGCAGGGGUGGGGGUUGCUAAGGAAAGGGUGGGAUGGGAGUGGGUAAAGAGUU,-0.0908
UGGCCCUGGUGGCAUGCGGGGAGGAAGAGGUGGCCUCAUGGAUCGUGGUGGUCCCGGUGGAAUGUUCAGAGGUGGCCGUGGAGGAGACAG,-0.0197
UCCUCAAGUCCUGUGCUACACAUCGUAUGUACCGAAUCGGAGGAAAGGUGGAAAGUAUUAUGUUACGCCGUUCGGAUCUGCACUUCCAGC,-1.55
CUGUGCUACACAUCGUAUGUACCGAAUCAAACCCCCCCAAAUUUUUUUAAACCCCCCCAAAAAAGUAUUAUGUUACGCCGUUCGGAUCUG,1.05

# Block 4
# Target: Interferon regulatory factor 7, full length, phosphomimetic (IRF7, Homo sapiens, UniProt Q92985, residues 1-503, S471D/S472D/S475D/S476D/S477D/S483D/S484D/S487D)
# Chain of UniProt Q92985 (whole entry, unmodified, looked up): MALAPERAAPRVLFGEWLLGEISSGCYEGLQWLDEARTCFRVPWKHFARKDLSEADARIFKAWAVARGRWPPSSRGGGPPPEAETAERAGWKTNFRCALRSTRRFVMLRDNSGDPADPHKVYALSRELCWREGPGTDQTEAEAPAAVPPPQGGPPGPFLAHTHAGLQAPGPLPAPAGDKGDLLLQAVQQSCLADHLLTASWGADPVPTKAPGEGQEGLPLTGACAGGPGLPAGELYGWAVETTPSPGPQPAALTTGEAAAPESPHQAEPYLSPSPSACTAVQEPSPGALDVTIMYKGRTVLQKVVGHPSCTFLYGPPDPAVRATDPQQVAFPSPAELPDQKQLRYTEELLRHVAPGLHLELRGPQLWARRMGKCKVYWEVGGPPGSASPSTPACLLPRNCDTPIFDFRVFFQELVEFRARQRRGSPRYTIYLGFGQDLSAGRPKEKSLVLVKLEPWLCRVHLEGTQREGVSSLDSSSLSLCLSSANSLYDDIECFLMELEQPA
# Technique: protein-binding microarray
# Molecule type: double-stranded DNA, one strand shown
# Medium: in vitro
# Tested at: 2200 nM top
# Setting: 60-bp whole probe
# With: salmon DNA 0.4 mg/ml
# Relative to: random background probes
# Reading: higher = stronger binding
# Constant ends, left off below: GCCTAGCAC … GTCTTGATTCGCTTGACGCTGCTG
Strand,fitted relative affinity [z-score]
TTTGGACTGGGGACTGGGTTAGTGCTA,-0.651
GACGTACTGAGTATCGAGACGTGCTAG,0.0876
TTAGGTCTCGGTAGCGGTTAGTGCTAG,-0.0455
TCAGCATTGCTTCTATAACTGTGCTAG,0.411
GACGGTTTCCTTCTCTTGACGTGCTAG,2.99
GACGGTCTCGGTCTTGGGACGTGCTAG,0.0361
GACGATTTCGCGTATCGAGACGTGCTA,1.45
TCACGTCTGAGCTCCGTACTGTGCTAG,0.976

# Block 5
# Target: CCNE1, cyclin fold, Cln2 fusion (human)
# Technique: yeast growth competition, sequencing
# Medium: yeast
# Setting: strong parent motif
# Relative to: not given
# Reading: higher = stronger binding
# Starting sequence: viral docking peptide; YKVKRRLVFGADD
Substitution,normalised enrichment score
D12V,5.4
F9C,0.489
K4Q,3.99
G10F,4.76
V8I,5.71
R6Y,1.59
A11E,6.85
G10S,5.5
L7V,0.563
A11Q,5.92
A11I,6.16
D12I,4.7
V8Y,6.01
G10P,6.44
L7E,0.22
K2I,4.6
D12M,5.75
G10H,5.09
F9D,0.48
R6L,1.85
V3M,1.04
G10M,5.19
R6S,1.21
R5T,0.672
G10D,6.75

# Repeated from above (block 2):
Strand,RBNS enrichment (R)
CCCCGUGCGAGCGGCACCCCUGCCCUGCCCUCCACAGAAUUGGGUUCCAAGGGCUGUUCCAGACAACUGCCAACGUCACUGAGGGCCCUGCCCCAGCGGCCCUGGCCCCA,0.213
UAAUUUAGUGUUUUUAACUGAUACAUAAUUUAUCAAGCAGUACAUGAAAGUGUAAUAAUAAAAUGUCUAUGUAUCUUUAGUUACAUUCAAAUUUGUAACUUUAUAAACAU,0.351
UCUUAAUUCUUGGGGAGGUUACUAAUAGCAGUAGGAUAGAAUUUUAUGAGGUUACCUACAACUACUUAAUGUACUUACACUGUAAGCCUUGUUGCUUUACCCAAGACAAA,0.437
UUGUAUUUGUUUUAAGAAACAUUGGUUCCUAUGUAUUUUAGCAUUUUUGGUGAUUUCAAUUGACUUUGUUUCUUUUAGGUACUGUUUUUAUUGUUUUACUUAGAAUAUUA,0.542
GAUAGUUAAAAAUUACUAAUUGGUUUUAUUUCCCUUCACACUCUGCCUCCCCACUUCUCCCCCCGUUACUGAAAAAUAACCAUUUUAGUGUCAGGCUAGAAAUUGAAUUG,0.436
CCCAUCAGAAUUAUAUUUAUACAUAUUGGUGGAUAAGUUCUUGUCUUCCCACAUCAGAGAAUUUUUUUUUAAACCAAAAUGGGCAGAAUAGCAUUUUGUAUGUUAGAGAC,0.456
GGGCAGACUGUUCUCUCAUAGUCUUAUCUGUUUGAAUAUUCCUGGGUAUGACUUUAUGUGUGGCAAAAACCCACAUUACCAAAGUAGUUUUUAACUACUGUAAUUUGUAA,0.405
UACUUUUCUGUAUUCCCAAGGAAUGCCUUCCUGUCUUAUUUUAGCCAAAACAAACUGGUUCCAUGCCUUCCUUGCAGUGAACGUUACAAUGGAUGUGGUUGUCAAUGUGA,0.329
